Measurements pooled from the literature.
Every numbered part comes from another study and shows a few of its results, in no order. Values joined by “and” are separate records of one study, mostly repeats; a detail may differ.
UniProt P35368, sequence (whole entry, looked up): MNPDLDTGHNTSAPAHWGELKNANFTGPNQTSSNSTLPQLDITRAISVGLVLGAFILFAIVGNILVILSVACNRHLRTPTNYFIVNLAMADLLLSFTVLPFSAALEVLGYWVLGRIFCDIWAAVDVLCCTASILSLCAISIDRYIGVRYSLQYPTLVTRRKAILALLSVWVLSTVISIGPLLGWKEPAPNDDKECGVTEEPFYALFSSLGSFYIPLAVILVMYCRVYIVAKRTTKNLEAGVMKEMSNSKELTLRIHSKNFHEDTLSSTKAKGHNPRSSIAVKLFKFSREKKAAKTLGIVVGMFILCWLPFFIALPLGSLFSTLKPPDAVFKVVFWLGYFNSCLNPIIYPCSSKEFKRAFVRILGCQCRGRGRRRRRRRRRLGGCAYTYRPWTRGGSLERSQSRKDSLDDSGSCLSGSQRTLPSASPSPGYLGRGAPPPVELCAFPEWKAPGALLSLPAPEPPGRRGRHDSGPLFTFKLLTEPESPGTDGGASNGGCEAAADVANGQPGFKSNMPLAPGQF
UniProt P25021, sequence (whole entry, looked up): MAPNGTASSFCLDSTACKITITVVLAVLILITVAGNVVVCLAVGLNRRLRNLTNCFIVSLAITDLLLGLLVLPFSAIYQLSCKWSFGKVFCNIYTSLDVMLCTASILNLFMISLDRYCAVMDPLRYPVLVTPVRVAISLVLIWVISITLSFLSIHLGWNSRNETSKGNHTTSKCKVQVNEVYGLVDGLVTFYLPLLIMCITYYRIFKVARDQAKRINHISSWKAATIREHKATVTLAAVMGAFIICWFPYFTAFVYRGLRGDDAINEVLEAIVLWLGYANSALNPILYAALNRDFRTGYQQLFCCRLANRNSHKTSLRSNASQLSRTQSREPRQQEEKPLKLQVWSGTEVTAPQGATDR
UniProt P08172, sequence (whole entry, looked up): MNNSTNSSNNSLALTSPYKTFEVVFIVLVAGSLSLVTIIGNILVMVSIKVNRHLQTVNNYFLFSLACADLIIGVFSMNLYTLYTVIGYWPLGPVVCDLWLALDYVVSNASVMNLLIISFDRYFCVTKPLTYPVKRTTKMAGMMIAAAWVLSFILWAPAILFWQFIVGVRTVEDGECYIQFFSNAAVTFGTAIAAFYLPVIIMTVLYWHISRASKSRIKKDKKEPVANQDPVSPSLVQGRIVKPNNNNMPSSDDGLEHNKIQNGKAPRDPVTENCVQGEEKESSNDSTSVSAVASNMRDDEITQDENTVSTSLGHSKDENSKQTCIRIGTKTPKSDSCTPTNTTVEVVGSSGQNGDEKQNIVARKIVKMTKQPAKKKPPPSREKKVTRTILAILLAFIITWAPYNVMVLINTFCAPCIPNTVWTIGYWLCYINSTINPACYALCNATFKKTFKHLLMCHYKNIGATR
UniProt P08173, sequence (whole entry, looked up): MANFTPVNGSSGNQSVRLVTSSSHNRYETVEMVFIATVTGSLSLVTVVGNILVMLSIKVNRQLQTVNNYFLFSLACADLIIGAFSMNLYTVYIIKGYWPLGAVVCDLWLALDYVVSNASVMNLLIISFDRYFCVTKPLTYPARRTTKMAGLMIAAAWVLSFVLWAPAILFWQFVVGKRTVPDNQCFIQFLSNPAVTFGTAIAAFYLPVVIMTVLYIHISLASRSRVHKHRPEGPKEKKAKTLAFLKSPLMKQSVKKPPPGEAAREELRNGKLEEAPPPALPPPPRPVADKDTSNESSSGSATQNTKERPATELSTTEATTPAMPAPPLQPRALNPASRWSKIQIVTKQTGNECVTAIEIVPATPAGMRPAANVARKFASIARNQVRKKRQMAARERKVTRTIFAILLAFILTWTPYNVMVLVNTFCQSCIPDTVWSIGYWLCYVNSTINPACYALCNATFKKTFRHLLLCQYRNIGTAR
UniProt P25100, sequence (whole entry, looked up): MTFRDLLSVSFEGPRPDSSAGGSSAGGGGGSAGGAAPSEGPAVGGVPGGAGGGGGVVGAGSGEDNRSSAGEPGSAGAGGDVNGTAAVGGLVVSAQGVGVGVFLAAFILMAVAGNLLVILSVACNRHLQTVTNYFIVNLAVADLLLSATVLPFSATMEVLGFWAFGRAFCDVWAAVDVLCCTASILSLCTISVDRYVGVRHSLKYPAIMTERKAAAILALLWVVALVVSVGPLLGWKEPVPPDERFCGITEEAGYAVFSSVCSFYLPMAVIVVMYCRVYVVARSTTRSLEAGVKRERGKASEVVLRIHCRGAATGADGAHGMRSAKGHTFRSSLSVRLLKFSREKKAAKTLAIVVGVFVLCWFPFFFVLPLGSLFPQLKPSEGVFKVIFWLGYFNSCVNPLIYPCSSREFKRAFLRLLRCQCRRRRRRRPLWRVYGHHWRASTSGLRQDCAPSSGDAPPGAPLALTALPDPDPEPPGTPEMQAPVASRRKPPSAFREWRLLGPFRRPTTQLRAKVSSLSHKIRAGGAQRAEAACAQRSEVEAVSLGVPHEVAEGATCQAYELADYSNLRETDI
UniProt Q9H3N8, sequence (whole entry, looked up): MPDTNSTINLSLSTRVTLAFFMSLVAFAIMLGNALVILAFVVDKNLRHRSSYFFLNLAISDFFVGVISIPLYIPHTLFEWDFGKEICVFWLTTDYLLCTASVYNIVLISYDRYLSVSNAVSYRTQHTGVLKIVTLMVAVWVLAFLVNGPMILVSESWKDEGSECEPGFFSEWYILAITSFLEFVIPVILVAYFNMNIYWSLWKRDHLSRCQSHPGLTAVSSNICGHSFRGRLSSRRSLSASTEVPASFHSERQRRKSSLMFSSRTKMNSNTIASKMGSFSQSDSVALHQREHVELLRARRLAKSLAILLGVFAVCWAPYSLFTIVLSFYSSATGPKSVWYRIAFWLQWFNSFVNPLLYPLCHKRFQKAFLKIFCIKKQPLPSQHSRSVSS
UniProt P18825, sequence (whole entry, looked up): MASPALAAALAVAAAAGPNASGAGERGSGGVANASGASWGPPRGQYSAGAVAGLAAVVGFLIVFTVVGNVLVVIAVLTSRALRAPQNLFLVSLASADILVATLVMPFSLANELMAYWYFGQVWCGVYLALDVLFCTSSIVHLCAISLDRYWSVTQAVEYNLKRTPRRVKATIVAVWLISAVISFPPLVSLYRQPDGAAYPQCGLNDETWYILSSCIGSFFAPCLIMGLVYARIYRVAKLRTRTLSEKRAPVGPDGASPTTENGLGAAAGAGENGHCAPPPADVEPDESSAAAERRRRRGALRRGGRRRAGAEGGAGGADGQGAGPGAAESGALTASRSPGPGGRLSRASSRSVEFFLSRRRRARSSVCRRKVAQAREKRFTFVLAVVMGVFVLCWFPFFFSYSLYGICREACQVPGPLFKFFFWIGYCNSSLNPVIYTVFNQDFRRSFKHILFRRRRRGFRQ
UniProt P34969, sequence (whole entry, looked up): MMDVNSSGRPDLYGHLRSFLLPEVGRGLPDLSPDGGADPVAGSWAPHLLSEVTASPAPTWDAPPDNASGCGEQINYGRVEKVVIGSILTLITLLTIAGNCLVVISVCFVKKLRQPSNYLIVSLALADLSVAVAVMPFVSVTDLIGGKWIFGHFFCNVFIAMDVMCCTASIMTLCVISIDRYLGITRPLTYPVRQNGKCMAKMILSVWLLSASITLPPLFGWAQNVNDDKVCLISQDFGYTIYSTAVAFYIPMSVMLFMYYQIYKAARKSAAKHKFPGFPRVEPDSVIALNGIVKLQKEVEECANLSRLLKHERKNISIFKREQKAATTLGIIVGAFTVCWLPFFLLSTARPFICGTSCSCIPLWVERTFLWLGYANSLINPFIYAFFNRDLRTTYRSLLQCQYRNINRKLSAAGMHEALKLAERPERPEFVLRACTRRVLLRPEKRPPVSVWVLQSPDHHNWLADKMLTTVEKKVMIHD
UniProt P18089, sequence (whole entry, looked up): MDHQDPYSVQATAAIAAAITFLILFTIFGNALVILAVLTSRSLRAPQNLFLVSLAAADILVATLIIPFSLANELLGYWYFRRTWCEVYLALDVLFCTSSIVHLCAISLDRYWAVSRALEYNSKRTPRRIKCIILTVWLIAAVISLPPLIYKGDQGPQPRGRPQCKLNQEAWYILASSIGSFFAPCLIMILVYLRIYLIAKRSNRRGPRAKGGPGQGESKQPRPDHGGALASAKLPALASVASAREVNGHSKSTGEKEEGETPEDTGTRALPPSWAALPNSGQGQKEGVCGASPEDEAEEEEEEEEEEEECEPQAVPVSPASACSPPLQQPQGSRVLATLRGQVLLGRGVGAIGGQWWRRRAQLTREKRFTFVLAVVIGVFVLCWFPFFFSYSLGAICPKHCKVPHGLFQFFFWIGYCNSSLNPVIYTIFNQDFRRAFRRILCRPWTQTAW
UniProt P13945, sequence (whole entry, looked up): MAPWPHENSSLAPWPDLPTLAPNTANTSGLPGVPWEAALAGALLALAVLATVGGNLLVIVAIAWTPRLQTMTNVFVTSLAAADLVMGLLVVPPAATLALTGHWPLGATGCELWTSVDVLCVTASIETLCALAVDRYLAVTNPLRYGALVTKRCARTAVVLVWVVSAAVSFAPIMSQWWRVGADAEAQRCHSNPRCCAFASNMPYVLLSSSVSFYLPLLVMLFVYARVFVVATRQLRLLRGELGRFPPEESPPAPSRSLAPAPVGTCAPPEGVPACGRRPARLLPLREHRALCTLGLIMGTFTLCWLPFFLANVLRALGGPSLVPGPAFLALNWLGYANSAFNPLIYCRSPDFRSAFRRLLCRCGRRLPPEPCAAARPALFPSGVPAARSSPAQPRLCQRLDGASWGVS

Block 1 — organism: Sarcocystis neurona; observed: parasite growth; tested at: concentration not given; setting: first screen; reference: untreated; quantity: log2 fold change
CC(CCCCC(=O)Nc1ccc(C(F)(F)F)cc1)NCCc1cnc[nH]1 (centres unmarked): 0.076
C#C[C@]1(O)CC[C@H]2[C@@H]3CCC4=CC(=O)CC[C@@H]4[C@H]3CC[C@@]21C: 0.04
CC(Cc1ccccc1)(NC(=O)CN)c1ccccc1.Cl (centres unmarked): 0.15
Nc1nc(=O)[nH]cc1F: 0.25
Cl.O=C(O)/C=C/c1ccc(Cn2ccnc2)cc1: 0.1

Block 2 — species: human; matrix: microsomes or S9; tested at: 2 µM; time: 0.5 h; quantity: remaining compound
OC1=C2C(=Nc3ccccc3NC2c2cccnc2)CC(c2ccccc2)C1 (centres unmarked): 68.3%
Nc1cc(C2=NOC3CCCCC23)nc(C(=O)O)c1Cl (centres unmarked): > 99%
CC(C)N1N=C(c2nc(-c3ccsc3)no2)CCC1=O: 27.2%

Block 3 — organism: Cryptosporidium parvum; technique: time-kill; cells: HCT-8; strain: nanoluciferase-expressing; reference: DMSO control; quantity: luminescence remaining
Structure (SMILES): CN(C(=O)c1ccn2ncc(-c3ccc(C(N)=O)cc3)c2c1)c1ccc(C#N)cn1
0.7407 µM, 24 h: 26.8% and 34.4%
0.7407 µM, 0 h: 98% and 99.4% and 90.3% and 97.4% and 91.4% and 90.1% and 103% and 91.2%
0.7407 µM, 48 h: 10.4% and 11.7%
0.00102 µM, 72 h: 104% and 64.4%

Block 4 — observed: binding; technique: radioligand binding; tested at: 10 µM; quantity: inhibition
SMILES: CCCCN(CCCC)C(=O)CN1C[C@@H](c2cc(OC)c3c(c2)OCO3)[C@H](C(=O)O)[C@H]1CC(C)(C)CCC
ADRA2B (Homo sapiens, UniProt P18089): 50%
CHRM2 (Homo sapiens, UniProt P08172): 3.71%
HRH4 (Homo sapiens, UniProt Q9H3N8): 4.1%
ADRA1B (Homo sapiens, UniProt P35368): 6.5%
DRD1 (Homo sapiens, UniProt P21728): 16.6%
CHRM4 (Homo sapiens, UniProt P08173): -19.2%
HTR7 (Homo sapiens, UniProt P34969): -11.7%
ADRB3 (Homo sapiens, UniProt P13945): 28.4%
HRH1 (Homo sapiens, UniProt P35367): 47.4%
ADRA1D (Homo sapiens, UniProt P25100): 6.55%
ADRA2C (Homo sapiens, UniProt P18825): 56.1%
HRH2 (Homo sapiens, UniProt P25021): 8.46%

Other studies, line by line — organism: Leishmania donovani; observed: parasite killing; strain: DD8
c1ccc(Oc2ccc(Nc3c4c(nc5ccccc35)CCC4)cc2)cc1  inhibition (promastigotes; 0.66 µM, 72 h): 51% and 52%
CCOc1ccc(Nc2c3c(nc4ccccc24)CCC3)cc1  inhibition (intracellular amastigotes; 0.8 µM, 48 h): 36% and 39% and 33%

Repeated from above (other studies, line by line):
CCOc1ccc(Nc2c3c(nc4ccccc24)CCC3)cc1  inhibition (intracellular amastigotes; 0.8 µM, 48 h): 36% and 39% and 33%
c1ccc(Oc2ccc(Nc3c4c(nc5ccccc35)CCC4)cc2)cc1  inhibition (promastigotes; 0.66 µM, 72 h): 51% and 52%
